Results from different studies.
Every numbered part comes from another study and shows a few of its results, in no order.

Block 1 — technique: protein binding microarray; form: double-stranded DNA, one strand shown; medium: in vitro; concentration: not given; reference: not given; reading: higher = stronger binding
Target: Histone acetyltransferase KAT6A, winged helix 2, GST fusion (KAT6A, Homo sapiens, UniProt Q92794, residues 85-181)
Notes: 8-mer, flanks averaged, mean of 2 arrays, mostly near background
Residues (chain): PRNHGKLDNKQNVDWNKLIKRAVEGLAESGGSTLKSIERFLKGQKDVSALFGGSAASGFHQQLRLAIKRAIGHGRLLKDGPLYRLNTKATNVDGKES
Sequence | E-score
CTGCCGAC | 0.0244
CGGGCGAC | -0.0538
CAGCCCTC | 0.0401
CCGTTCAG | 0.0324

Block 2 — technique: universal PBM; form: double-stranded DNA, one strand shown; medium: in vitro; concentration: not given; reading: higher = stronger binding
Target: Sal-like protein 4, full length isoform B (SALL4, Homo sapiens, UniProt Q9UJQ4-2, residues 1-616)
Notes: 8-mer, flanks averaged, mean of replicates
Residues (chain): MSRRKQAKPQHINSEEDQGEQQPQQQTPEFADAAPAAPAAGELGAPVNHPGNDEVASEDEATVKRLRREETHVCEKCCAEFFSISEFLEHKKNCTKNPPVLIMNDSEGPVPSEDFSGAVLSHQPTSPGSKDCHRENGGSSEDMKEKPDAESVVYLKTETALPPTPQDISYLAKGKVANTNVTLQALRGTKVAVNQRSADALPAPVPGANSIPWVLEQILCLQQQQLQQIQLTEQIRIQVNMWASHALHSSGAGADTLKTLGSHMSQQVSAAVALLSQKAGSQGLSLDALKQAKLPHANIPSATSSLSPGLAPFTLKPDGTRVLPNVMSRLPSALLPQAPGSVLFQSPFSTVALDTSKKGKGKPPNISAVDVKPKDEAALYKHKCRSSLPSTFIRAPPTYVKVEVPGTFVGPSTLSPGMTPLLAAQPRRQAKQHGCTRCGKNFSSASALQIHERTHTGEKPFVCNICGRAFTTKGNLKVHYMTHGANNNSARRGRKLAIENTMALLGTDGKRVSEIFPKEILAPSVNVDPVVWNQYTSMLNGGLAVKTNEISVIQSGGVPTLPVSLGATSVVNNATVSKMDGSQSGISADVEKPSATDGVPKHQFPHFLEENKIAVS
Sequence | E-score
GGTCCCTA | -0.244
ATAAGCAG | 0.149
GTTAGTTA | 0.31
TCAAAGAA | 0.157
ACTATAAA | 0.309
CCTTTTGA | 0.131

Block 3 — technique: competition protein-binding microarray; form: double-stranded DNA, one strand shown; medium: in vitro; concentration: 2 µM; with: Cbf1 competitor, 0.05 µM; reading: higher = stronger binding
Target: Phosphate system positive regulatory protein PHO4, full length, GST-tagged (PHO4, Saccharomyces cerevisiae, UniProt P07270, residues 1-312)
Notes: whole 60-bp probe, lowest competitor level
Residues (chain): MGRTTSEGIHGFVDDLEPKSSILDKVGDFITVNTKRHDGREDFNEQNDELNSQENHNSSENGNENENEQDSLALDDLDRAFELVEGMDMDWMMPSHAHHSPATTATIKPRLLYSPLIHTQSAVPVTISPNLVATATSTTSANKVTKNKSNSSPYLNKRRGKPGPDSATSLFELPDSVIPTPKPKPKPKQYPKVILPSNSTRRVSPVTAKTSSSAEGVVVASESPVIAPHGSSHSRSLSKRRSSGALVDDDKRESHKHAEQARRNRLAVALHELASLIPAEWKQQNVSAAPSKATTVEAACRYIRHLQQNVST
Sequence | fluorescence intensity [a.u.]
TCGCATCCAGGCACACCCGTGTCCTCTTCTTTAATGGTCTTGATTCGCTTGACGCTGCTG | 10000
AAAAAAAGAACTGTGTACGTGATGGCTTTGTCCCCTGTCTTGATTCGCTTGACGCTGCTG | 5010
AAATTACTAAGTTGATGCGTGGGTGACGCCGTATGAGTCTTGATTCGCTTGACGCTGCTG | 8230
CGGGGTTAAGTTTGTCACCCCACTTGCTTGCAGCAGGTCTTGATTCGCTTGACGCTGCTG | 4540
TTGGGTTTCAACGTTTCCGTGGGTATGGGTCCACAAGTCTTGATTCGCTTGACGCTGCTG | 5390
CGGGGTTAAGTTTGTCACGAGACTTGCTTGCAGCAGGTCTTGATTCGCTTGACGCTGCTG | 6480
CCACACTGACCGAGTCACGTGTGTTTATTCTGTTTTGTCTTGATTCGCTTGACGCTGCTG | 14900

Other studies, line by line
Molecule | target | assay | system | setting | scale | endpoint | result
PhoQ, residues 284 288 289 292 302 303 AGGCYF | PhoP, residues 12 14 15 18 19 LWHVM (Escherichia coli, UniProt P23836) | Sort-seq, measured: YFP reporter | E. coli | PhoQ-PhoP variant library, with: 10 µM Mg2+ | reference: high Mg2+ state, higher = stronger signaling | fold induction | 20.6
